Published values of several laboratories.
Lines come from different studies, so protocols differ. Numbers after ± are the reported error. ≈ marks a conversion by molar mass, not a printed value.

Substance | organism | assay | system | setting | how to read | measurement | result
CN(C)C(=O)CN1C(=O)Cc2c([nH]c3ccc(Br)cc23)-c2ccc(Cl)cc21 | Leishmania braziliensis | intracellular amastigote infection, DAPI fluorescence microscopy | macrophages | 10 µM, 24 h, 5 µM if macrophages detach | lower = more active | infected macrophages | 72 to 107%
Cc1ccc(S(=O)(=O)N2C(=O)CSC2c2ccc(F)cc2)cc1 (centres unmarked) | Lacticaseibacillus casei | broth microdilution | NCIM 2651 |  |  | MIC | 4 µg/mL (≈ 11.4 µM)
CC(=O)OC[C@@]1(C)[C@H]2CC[C@@H]3CN(Cc4ccc(C(F)(F)F)cc4)[C@@H](C4=CCOC4=O)C[C@H]3[C@]2(C)CC[C@H]1OC(C)=O | Human coronavirus 229E | viral replication, cytopathic effect | MRC5 cells | 25 µM |  | inhibition | ~100%
Cc1cc(C)cc(Nc2nc(-c3cc(C(=O)Nc4ccccc4)no3)cs2)c1 | Mycobacterium avium |  | 11 | 96 h |  | IC50 | > 100 µM
CO[C@H]1C[C@@H]2C[C@H](O)CC[C@]2(C)[C@H]2CC[C@]3(C)[C@@H]([C@H](C)CCC(=O)O)CC[C@H]3[C@H]12 | Clostridioides difficile | spore germination, inhibitor, OD600 | NAP1 | 20 min, added: 2000 µM taurocholate |  | complete inhibition concentration | > 500 µM
CC[C@H]1OC(=O)[C@H](C)[C@@H](O[C@H]2C[C@@](C)(OC)[C@@H](O)[C@H](C)O2)[C@H](C)[C@@H](O[C@@H]2O[C@H](C)C[C@H](N(C)C)[C@H]2O)[C@](C)(O)C[C@@H](C)C(=O)[C@H](C)[C@@H](O)[C@]1(C)O | other Haemophilus species |  | community-acquired pneumonia patients | Fine score 70 or more |  | sensitive strains | 0%
O=C(Nc1cccc(F)c1)Nc1nnc(SCC(O)(Cn2cncn2)c2ccc(F)cc2F)s1 (centres unmarked) | Nannizzia gypsea | broth microdilution | PTCC 5070 | 48 h, 37 °C |  | MIC90 | 2 to 4 µg/mL (≈ 3.94 to 7.88 µM)
C[C@@H]1[C@H](O)[C@@H](C)/C=C/C=C/C=C/C=C/C=C/C=C/C=C/[C@H](O[C@@H]2O[C@H](C)[C@@H](O)[C@H](N)[C@@H]2O)C[C@@H]2O[C@](O)(C[C@@H](O)C[C@@H](O)[C@H](O)CC[C@@H](O)C[C@@H](O)CC(=O)O[C@H]1C)C[C@H](O)[C@H]2C(=O)O | Leishmania braziliensis | parasite growth | J774 | 24 h, intracellular, amastigote |  | EC50 | 0.2 µM
CC(C)(C)Oc1ccc(CC2NC(=O)C(C(=O)NC(C(=O)NC3C(=O)N4C3SC(C)(C)C4C(=O)O)c3ccccc3)=C2O)cc1 (centres unmarked) | Escherichia coli | broth microdilution | BW25113, Mueller-Hinton broth | added: 2,2'-bipyridyl 30 µg/mL |  | MIC | 12.5 µg/mL (≈ 19.6 µM)
C[C@@H]1[C@H](O)[C@@H](C)/C=C/C=C/C=C/C=C/C=C/C=C/C=C/[C@H](O[C@@H]2O[C@H](C)[C@@H](O)[C@H](N)[C@@H]2O)C[C@@H]2O[C@](O)(C[C@@H](O)C[C@@H](O)[C@H](O)CC[C@@H](O)C[C@@H](O)CC(=O)O[C@H]1C)C[C@H](O)[C@H]2C(=O)O | Candida albicans | microbial growth, well diffusion | ATCC10231 | 500 µg/mL, 72 h |  | inhibition zone | 22 mm
Cc1ccc(S(=O)(=O)N2C(=O)CSC2c2ccccc2[N+](=O)[O-])cc1 (centres unmarked) | Lacticaseibacillus casei | broth microdilution | NCIM 2651 |  |  | MIC | 32 µg/mL (≈ 84.6 µM)
CCOC(=O)CN(C(=O)c1ccn2ncc(-c3ccc(C(=O)NC)cc3)c2c1)c1ccc(Cl)cc1 | Cryptosporidium hominis | cytopathic effect | HCT-8 | 48 h |  | EC50 | 0.066 µM
COc1cc2[nH]c(C)c(-c3ccc(Oc4ccc(OC(F)(F)F)cc4)cc3)c(=O)c2cc1Cl | Plasmodium yoelii | parasitemia suppression | mouse | oral, 4 days, blood stage, PEG-400 vehicle | 50% suppression vs untreated | ED50 | 0.02 mg/kg/day
O=C(Nc1ccc(Br)cc1)Nc1nnc(SCC(O)(Cn2cncn2)c2ccc(F)cc2F)s1 (centres unmarked) | Nannizzia gypsea | broth microdilution | PTCC 5070 | 48 h, 37 °C |  | MIC90 | 8 µg/mL (≈ 14.1 µM)
C[C@H]1[C@H](OC(=O)CCC(=O)O)O[C@@H]2O[C@@]3(C)CC[C@H]4[C@H](C)CC[C@@H]1[C@@]24OO3 | Hepatitis E virus | viral replication, inhibitor, luciferase |  | 48 h, replicon |  | EC50 | 19.5 µM
NCCNC(=O)CN1C(=O)Cc2c([nH]c3ccc(Br)cc23)-c2ccc(Cl)cc21 | Leishmania braziliensis | intracellular amastigote infection, DAPI fluorescence microscopy | macrophages | 10 µM, 24 h, 5 µM if macrophages detach | lower = more active | infected macrophages | 38 to 68%
O=C(Nc1ccccc1)Nc1nnc(SCC(O)(Cn2cncn2)c2ccc(F)cc2F)s1 (centres unmarked) | Nannizzia gypsea | broth microdilution | PTCC 5070 | 48 h, 37 °C |  | MIC90 | 2 to 4 µg/mL (≈ 4.09 to 8.17 µM)
COc1cc2[nH]c(C)c(-c3ccc(C(F)(F)F)cc3)c(=O)c2cc1Cl | Plasmodium berghei (GFP) |  | mice | oral, 10 mg/kg once daily, days 3-5, day 6 post-infection |  | parasitaemia suppression | 11 ± 2.3%
CC1(C)S[C@@H]2[C@H](NC(=O)[C@H](N)c3ccc(O)cc3)C(=O)N2[C@H]1C(=O)O | other Enterobacteriaceae |  | community-acquired pneumonia patients | Fine score below 70 |  | sensitive strains | 20%

Substance | organism | assay | system | setting | how to read | measurement | result
RKVVTDFFKNIPQRI | guinea pig spinal cord homogenate |  | peptide, (SJL/J x PL/J)F1 mouse, EAE model | intradermal, 0.1 mg peptide twice, in IFA, 10-day interval, challenge 10 days later |  | disease incidence | 0%
O=C(Nc1nnc(SCC(O)(Cn2cncn2)c2ccc(F)cc2F)s1)Nc1ccccc1Cl (centres unmarked) | Nannizzia gypsea | broth microdilution | PTCC 5070 | 48 h, 37 °C |  | MIC90 | 4 µg/mL (≈ 7.63 µM)
Cc1cc(Nc2ccc(C(F)(F)F)nc2)n2nc(C(C)(F)F)nc2n1 | Plasmodium vivax | schizont maturation | field isolates Papua Indonesia | 48 h, human serum medium |  | EC50 | 0.18 µM
Cc1ccc(NC(=O)CSc2nc3ccccc3c(=O)n2-c2ccc(S(N)(=O)=O)cc2)cc1 | Candida albicans | microbial growth, well diffusion | ATCC10231 | 500 µg/mL, 72 h |  | inhibition zone | 24 mm
COc1cccc(NC(=O)Nc2nnc(SCC(O)(Cn3cncn3)c3ccc(F)cc3F)s2)c1 (centres unmarked) | Nannizzia gypsea | broth microdilution | PTCC 5070 | 48 h, 37 °C |  | MIC90 | 16 µg/mL (≈ 30.8 µM)
Cc1ccc(S(=O)(=O)N2C(=O)CSC2c2ccc(Br)cc2)cc1 (centres unmarked) | Lacticaseibacillus casei | broth microdilution | NCIM 2651 |  |  | MIC | 8 µg/mL (≈ 19.4 µM)
LSTFFRLFN | Streptococcus mutans | broth microdilution | peptide, UA159 | planktonic, anaerobic |  | MIC | > 256 µg/mL
CCN(CC)C(=O)CN1C(=O)Cc2c([nH]c3ccc(Br)cc23)-c2ccc(Cl)cc21 | Leishmania braziliensis | intracellular amastigote infection, DAPI fluorescence microscopy | macrophages | 10 µM, 24 h, 5 µM if macrophages detach | lower = more active | infected macrophages | 72 to 107%
CC[C@H]1OC(=O)[C@H](C)[C@@H](O[C@H]2C[C@@](C)(OC)[C@@H](O)[C@H](C)O2)[C@H](C)[C@@H](O[C@@H]2O[C@H](C)C[C@H](N(C)C)[C@H]2O)[C@](C)(O)C[C@@H](C)CN(C)[C@H](C)[C@@H](O)[C@]1(C)O | other Haemophilus species |  | community-acquired pneumonia patients | Fine score 70 or more |  | sensitive strains | 100%
O=S1(=O)N(CCN2CCOCC2)CCN1Cc1cccc(Oc2ccccc2)c1 | Norwalk virus | replicon RNA level, qRT-PCR | HG23 (Norwalk virus replicon) | 24 h |  | EC50 | 4.2 ± 1.8 µM
GYENPTYKFFEQMQN | Loligo pealeii | axonal transport | peptide, squid giant axon | cargo beads |  | mean instantaneous velocity | 0.371 µm/s
CN1CCN(C(=O)CN2C(=O)Cc3c([nH]c4ccc(Br)cc34)-c3ccc(Cl)cc32)CC1 | Leishmania braziliensis |  | J774 macrophages, intracellular amastigotes | 24 h |  | EC50 | 7 ± 1.3 µM
c1ccc2c(NCCCn3ccnc3)nncc2c1 | Leishmania braziliensis |  | J774.2 macrophages | IC25, 240 h, day 10 | reference: untreated | infection inhibition | 72%
CCCCCCCc1cc(=O)c2c(CC(=O)OC)cc(O)cc2o1 | Phyllosticta citricarpa |  | PDA plates | 10000 µg/mL, 504 h |  | mycelial growth | 3.4 ± 0.1 cm
CN(C(=O)c1ccn2ncc(-c3ccc(C(N)=O)cc3)c2c1)c1ccc(C#N)cn1 | Cryptosporidium hominis | cytopathic effect | HCT-8 | 48 h |  | EC50 | 0.207 ± 0.002 µM
COc1ccc(NC(=O)Nc2nnc(SCC(O)(Cn3cncn3)c3ccc(F)cc3F)s2)cc1 (centres unmarked) | Nannizzia gypsea | broth microdilution | PTCC 5070 | 48 h, 37 °C |  | MIC90 | 2 to 4 µg/mL (≈ 3.85 to 7.7 µM)
CN[C@H](CC(C)C)C(=O)N[C@H]1C(=O)N[C@@H](CC(N)=O)C(=O)N[C@H]2C(=O)N[C@H]3C(=O)N[C@H](C(=O)N[C@H](C(=O)O)c4cc(O)cc(O)c4-c4cc3ccc4O)[C@H](O)c3ccc(c(Cl)c3)Oc3cc2cc(c3O[C@@H]2O[C@H](CO)[C@@H](O)[C@H](O)[C@H]2O[C@H]2C[C@](C)(N)[C@H](O)[C@H](C)O2)Oc2ccc(cc2Cl)[C@H]1O | Staphylococcus aureus CVCC546 | ELISA, measured: IL-1β | CD-1 mouse endometritis | 10 µg/mL, 24 h |  | serum cytokine level | 199 pg/mL
CO[C@@H]1CC[C@@]2(C)[C@@H](C1)C[C@H](O)[C@@H]1[C@@H]2CC[C@]2(C)[C@@H]([C@H](C)CCC(=O)O)CC[C@@H]12 | Clostridioides difficile | spore germination, inhibitor, OD600 | NAP1 | 20 min, added: 2000 µM taurocholate |  | complete inhibition concentration | > 500 µM
O=[N+]([O-])c1cn2c(n1)O[C@@H](COc1ccc(-c3ccc(F)cc3)nc1)CC2 | Leishmania aethiopica |  | mouse peritoneal macrophages (CD-1), MHOM/ET/84/KH | 72 h, 34 °C, intracellular amastigotes |  | EC50 | 24.6 µM
